Measurements gathered from unrelated publications.
Each numbered part is a random draw from the data of one study; scales do not carry over between parts. Changes are numbered by the printed parent chain.
Chain of UniProt P78368 (whole entry, looked up): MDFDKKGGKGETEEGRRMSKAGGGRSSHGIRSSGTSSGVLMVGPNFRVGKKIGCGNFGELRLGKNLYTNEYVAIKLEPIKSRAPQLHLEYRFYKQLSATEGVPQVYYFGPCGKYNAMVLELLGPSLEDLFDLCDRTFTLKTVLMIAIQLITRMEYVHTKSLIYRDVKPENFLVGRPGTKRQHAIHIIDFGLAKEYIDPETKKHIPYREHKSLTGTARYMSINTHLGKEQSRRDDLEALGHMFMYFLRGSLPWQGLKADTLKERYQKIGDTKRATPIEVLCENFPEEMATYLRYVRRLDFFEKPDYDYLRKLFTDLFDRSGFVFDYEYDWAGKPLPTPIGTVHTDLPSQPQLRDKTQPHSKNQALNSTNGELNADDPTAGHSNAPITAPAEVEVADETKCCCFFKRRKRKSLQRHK
Chain of UniProt Q9UHD2 (whole entry, looked up): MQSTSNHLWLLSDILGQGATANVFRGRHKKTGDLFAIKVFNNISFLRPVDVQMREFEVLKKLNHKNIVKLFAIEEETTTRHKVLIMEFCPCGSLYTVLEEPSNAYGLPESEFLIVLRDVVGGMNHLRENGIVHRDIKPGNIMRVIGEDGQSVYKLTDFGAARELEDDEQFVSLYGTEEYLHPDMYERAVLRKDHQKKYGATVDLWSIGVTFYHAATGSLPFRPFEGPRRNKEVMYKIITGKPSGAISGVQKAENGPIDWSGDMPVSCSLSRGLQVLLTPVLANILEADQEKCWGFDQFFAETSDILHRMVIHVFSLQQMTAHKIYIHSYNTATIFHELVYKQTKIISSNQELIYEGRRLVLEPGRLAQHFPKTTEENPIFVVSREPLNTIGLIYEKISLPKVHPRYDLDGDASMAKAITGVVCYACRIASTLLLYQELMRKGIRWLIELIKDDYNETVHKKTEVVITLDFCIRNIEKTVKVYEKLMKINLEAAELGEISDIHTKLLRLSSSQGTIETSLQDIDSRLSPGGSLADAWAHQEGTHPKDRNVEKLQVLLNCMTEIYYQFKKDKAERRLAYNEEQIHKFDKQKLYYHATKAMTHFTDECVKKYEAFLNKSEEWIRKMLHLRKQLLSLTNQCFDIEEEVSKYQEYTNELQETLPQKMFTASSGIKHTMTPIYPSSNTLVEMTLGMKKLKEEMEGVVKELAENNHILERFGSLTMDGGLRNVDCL
Chain of UniProt Q99558 (whole entry, looked up): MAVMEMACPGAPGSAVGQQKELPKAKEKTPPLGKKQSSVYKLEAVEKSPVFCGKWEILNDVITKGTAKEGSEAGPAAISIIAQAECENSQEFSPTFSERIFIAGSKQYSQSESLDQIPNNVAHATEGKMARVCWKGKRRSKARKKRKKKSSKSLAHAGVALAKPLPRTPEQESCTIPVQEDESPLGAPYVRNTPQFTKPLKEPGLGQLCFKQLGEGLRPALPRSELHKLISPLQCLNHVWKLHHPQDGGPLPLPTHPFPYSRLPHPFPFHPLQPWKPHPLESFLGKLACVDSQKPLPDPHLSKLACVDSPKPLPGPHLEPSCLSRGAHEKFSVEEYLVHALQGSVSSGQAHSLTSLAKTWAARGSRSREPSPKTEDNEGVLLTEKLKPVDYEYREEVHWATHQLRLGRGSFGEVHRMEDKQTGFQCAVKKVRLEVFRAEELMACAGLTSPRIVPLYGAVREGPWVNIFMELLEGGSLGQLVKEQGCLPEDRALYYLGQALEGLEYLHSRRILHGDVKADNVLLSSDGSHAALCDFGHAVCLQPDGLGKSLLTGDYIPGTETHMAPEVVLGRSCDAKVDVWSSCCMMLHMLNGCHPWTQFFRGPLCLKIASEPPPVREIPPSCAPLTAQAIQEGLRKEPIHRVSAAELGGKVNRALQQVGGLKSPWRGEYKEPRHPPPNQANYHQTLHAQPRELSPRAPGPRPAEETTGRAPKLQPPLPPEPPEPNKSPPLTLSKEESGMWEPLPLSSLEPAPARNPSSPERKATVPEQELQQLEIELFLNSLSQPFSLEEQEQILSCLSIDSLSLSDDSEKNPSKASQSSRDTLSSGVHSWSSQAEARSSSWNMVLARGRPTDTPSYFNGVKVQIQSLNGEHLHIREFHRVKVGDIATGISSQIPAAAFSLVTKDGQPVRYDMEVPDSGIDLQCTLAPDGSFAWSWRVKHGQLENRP
Chain of UniProt Q9UL54 (whole entry, looked up): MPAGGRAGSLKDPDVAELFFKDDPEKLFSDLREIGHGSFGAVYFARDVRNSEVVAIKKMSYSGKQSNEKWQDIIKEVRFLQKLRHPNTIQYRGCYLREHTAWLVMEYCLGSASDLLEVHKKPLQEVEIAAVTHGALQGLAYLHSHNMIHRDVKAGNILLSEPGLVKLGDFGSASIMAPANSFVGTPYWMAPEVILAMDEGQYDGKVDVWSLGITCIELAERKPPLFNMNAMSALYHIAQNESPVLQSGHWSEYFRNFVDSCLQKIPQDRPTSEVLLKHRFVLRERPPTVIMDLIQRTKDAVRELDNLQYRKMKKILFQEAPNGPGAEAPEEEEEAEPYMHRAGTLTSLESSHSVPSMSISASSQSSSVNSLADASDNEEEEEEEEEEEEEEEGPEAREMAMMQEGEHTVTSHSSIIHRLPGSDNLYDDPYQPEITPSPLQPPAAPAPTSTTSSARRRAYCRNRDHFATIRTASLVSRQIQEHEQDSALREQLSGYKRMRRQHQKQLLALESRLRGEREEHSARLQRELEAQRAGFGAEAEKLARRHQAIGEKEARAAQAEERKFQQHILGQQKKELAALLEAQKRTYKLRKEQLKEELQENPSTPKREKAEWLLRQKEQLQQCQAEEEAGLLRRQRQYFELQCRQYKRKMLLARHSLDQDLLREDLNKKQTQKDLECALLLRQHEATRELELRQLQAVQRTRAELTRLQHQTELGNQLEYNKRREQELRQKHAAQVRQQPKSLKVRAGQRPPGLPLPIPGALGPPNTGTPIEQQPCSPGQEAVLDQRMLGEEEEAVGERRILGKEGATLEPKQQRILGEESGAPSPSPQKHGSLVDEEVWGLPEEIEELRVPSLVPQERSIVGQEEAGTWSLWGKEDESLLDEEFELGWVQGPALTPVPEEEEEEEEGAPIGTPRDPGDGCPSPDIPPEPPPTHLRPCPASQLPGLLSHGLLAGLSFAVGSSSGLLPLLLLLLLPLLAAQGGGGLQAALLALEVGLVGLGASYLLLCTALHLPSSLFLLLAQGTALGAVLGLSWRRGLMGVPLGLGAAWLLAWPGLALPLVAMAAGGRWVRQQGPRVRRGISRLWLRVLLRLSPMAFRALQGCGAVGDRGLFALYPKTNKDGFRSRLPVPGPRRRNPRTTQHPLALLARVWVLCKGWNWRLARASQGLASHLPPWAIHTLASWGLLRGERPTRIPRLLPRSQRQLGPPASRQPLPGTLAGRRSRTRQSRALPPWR
Chain of UniProt P30291 (whole entry, looked up): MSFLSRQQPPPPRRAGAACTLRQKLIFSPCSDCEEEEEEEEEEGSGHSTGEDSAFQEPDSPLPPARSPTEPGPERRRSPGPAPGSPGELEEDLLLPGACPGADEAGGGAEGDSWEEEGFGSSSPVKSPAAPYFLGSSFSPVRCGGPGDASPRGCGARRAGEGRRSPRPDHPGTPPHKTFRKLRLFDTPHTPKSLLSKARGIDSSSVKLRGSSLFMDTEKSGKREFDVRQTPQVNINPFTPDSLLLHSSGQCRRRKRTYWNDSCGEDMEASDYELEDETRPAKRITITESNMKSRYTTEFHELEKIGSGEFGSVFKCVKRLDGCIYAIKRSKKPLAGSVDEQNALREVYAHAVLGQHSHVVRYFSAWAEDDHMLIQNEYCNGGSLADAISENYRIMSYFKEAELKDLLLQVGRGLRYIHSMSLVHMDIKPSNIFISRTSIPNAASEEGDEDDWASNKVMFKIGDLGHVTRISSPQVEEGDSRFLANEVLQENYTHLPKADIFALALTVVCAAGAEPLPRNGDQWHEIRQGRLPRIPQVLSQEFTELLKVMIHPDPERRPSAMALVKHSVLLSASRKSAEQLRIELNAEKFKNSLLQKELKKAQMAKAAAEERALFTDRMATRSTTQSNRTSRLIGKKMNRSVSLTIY
Chain of UniProt P52333 (whole entry, looked up): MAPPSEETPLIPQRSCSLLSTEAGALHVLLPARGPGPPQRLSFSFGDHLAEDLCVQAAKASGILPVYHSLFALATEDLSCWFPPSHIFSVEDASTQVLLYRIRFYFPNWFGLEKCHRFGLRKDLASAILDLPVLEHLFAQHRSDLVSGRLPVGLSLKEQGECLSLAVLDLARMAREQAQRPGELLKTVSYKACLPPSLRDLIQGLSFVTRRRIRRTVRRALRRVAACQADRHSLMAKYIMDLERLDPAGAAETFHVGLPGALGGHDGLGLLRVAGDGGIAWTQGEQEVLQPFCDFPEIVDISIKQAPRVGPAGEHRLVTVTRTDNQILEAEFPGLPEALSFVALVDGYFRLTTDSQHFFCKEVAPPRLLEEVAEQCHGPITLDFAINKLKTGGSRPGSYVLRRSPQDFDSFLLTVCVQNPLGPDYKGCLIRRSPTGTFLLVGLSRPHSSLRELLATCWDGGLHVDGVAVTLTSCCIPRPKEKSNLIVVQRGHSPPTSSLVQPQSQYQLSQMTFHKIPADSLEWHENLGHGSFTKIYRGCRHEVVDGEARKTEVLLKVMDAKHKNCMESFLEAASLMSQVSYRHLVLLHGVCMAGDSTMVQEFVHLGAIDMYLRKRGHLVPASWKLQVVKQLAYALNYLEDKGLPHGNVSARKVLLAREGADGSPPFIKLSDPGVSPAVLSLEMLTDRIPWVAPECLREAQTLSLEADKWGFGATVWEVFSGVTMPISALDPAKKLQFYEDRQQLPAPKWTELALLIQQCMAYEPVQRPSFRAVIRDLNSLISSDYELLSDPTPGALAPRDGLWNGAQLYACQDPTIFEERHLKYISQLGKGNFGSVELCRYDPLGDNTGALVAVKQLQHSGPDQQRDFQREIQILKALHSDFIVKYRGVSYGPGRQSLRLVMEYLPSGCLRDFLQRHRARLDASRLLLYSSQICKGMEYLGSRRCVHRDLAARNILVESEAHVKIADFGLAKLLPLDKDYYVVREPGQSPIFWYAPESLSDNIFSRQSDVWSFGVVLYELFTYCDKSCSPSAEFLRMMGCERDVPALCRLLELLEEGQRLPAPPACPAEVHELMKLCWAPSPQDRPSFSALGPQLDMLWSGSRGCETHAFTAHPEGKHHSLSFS

Study 1 — target: UBE2W UBC core domain (UniProt Q96B02); method: yeast two-hybrid; matrix: yeast; notes: mostly zero background; reference: not given; direction: higher = stronger interaction
B1: RNF135 RING domain (UniProt Q8IUD6); chain PVWLAEDDLGCIICQGLLDWPATLPCGHSFCRHCLEALWGARDARRWACPTCRQGAAQQPHLR
B2: TRIM22 RING domain (UniProt Q8IYM9); chain KEVKMSPQEGQKRDVCEHHGKKLQIFCKEDGKVICWVCELSQEHQGHQTFRINEVVKECQEK
B3: RNF24 RING domain (UniProt Q9Y225); chain KVKELNLHELCAVCLEDFKPRDELGICPCKHAFHRKCLIKWLEVRKVCPLCNMPVLQLAQLH
B4: DTX1 RING domain (UniProt Q86Y01); chain QKVKNPPDEDCTICMERLVTASGYEGVLRHKGVRPELVGRLGRCGHMYHLLCLVAMYSNGNKDGSLQCPTCKAIYGEKTGTQ
Residues (chain): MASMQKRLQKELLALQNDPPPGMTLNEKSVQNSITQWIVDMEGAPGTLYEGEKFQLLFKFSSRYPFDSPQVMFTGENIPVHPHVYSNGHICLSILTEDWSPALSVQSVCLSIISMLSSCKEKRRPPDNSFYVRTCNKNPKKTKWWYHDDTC
Sequence	lacZ reporter activity
ALDRLEKLLRCSRCTNILREPVCLGGCEHIFCSNCVSDCIGTGCPVCYTPAWIQDLKI (BARD1 RING domain (UniProt Q99728))	0
MDDQGCPRCKTTKYRNPSLKLMVNVCGHTLCESCVDLLFVRGAGNCPECGTPLRKSNFRV (MNAT1 RING domain (UniProt P51948))	0
KLWDINAHITCRLCSGYLIDATTVTECLHTFCRSCLVKYLEENNTCPTCRIVIHQSHPLQ (PCGF3 RING domain (UniProt Q3KNV8))	0
B1 (RNF135 RING domain)	0
B2 (TRIM22 RING domain)	0
KEQLEKHNDICAICYQDMKSAVITPCSHFFHAGCLKKWLYVQETCPLCHCHLKNSSQLP (RNF145 RING domain (UniProt Q96MT1))	0
B3 (RNF24 RING domain)	0
B4 (DTX1 RING domain)	0

Study 2 — tested at: 0.5 µM
SMILES: COC[C@H]1OC(=O)c2coc3c2[C@@]1(C)C1=C(C3=O)[C@@H]2CCC(=O)[C@@]2(C)C[C@H]1OC(C)=O
target	assay	conditions	how to read	remaining activity [%]
MERTK (Homo sapiens, UniProt Q12866)	enzyme activity, inhibitor	–	reference: control	88.7
ACVR1B (Homo sapiens, UniProt P36896)	enzyme activity, inhibitor	–	reference: control	97.7
MAPK3 (Homo sapiens, UniProt P27361)	enzyme activity, inhibitor	–	reference: control	94.7
CSNK1G2 (Homo sapiens, UniProt P78368)	enzyme activity, inhibitor	–	reference: control	85.8
TEK (Homo sapiens, UniProt Q02763)	enzyme activity, inhibitor	–	reference: control	90.9
EPHA3 (Homo sapiens, UniProt P29320)	enzyme activity, inhibitor	–	reference: control	98.1
MAP3K14 (Homo sapiens, UniProt Q99558)	enzyme activity, inhibitor	–	reference: control	106
ABL1 (Homo sapiens, UniProt P00519)	kinase activity	together with: ATP 10 µM	reference: untreated	101
WEE1 (Homo sapiens, UniProt P30291)	enzyme activity, inhibitor	–	reference: control	96.9
TAOK2 (Homo sapiens, UniProt Q9UL54)	enzyme activity, inhibitor	–	reference: control	97.6
MAPKAPK2 (Homo sapiens, UniProt P49137)	enzyme activity, inhibitor	–	reference: control	96.9
FRK (Homo sapiens, UniProt P42685)	enzyme activity, inhibitor	–	reference: control	94.3
TBK1 (Homo sapiens, UniProt Q9UHD2)	enzyme activity, inhibitor	–	reference: control	92.6
JAK3 (Homo sapiens, UniProt P52333)	enzyme activity, inhibitor	–	reference: control	95.5

Study 3 — observed: peptide-MHC binding; form: peptide; tested at: concentration not given
Target: HLA class I histocompatibility antigen, A alpha chain, allele A*25:01 (Homo sapiens, UniProt P04439)
Sequence	binding
YAMMSLFDM	inactive
TEDDWITYI	inactive
LIMEFNSLL	inactive
YMLMGFQLK	inactive
LPSCPTNFCIF	inactive
MLTNASGHA	inactive
RVGIYFGMK	inactive
QCFSVVLRY	inactive

Study 4 — target: CCNB1, cyclin fold, Cln2 fusion (human); method: yeast growth competition, sequencing; matrix: yeast; notes: strong parent motif; reference: not given; direction: higher = stronger binding
Parent: viral docking peptide; TSVRRALFTGGSD; partner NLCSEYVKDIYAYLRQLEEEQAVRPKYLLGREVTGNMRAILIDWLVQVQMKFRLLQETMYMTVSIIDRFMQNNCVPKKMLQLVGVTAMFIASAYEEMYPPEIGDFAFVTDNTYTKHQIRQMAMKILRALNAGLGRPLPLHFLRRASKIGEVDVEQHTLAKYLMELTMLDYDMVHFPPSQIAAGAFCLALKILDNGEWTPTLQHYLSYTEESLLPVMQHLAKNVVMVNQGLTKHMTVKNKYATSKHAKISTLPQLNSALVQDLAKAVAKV
Substitution	normalised enrichment score
TSVRRALFTGGHD [S12H]	1.84
TSVRRALFTGSSD [G11S]	2.57
TSVRRANFTGGSD [L7N]	0.322
TSVRNALFTGGSD [R5N]	0.165
TSQRRALFTGGSD [V3Q]	-0.203
TSVRRALFTGNSD [G11N]	2.09
TSVRRALFTGGID [S12I]	2.07
TSVRRALFTGGYD [S12Y]	1.91

Repeated from above (study 4):
Substitution	normalised enrichment score
TSVRRALFTGNSD [G11N]	2.09
TSVRRALFTGGID [S12I]	2.07
TSVRNALFTGGSD [R5N]	0.165
